Experimental data of several laboratories.
Each line is one published result; not all experiments were run side by side. Numbers after ± are the reported error.
Sequence of UniProt Q96CP6 (whole entry, looked up): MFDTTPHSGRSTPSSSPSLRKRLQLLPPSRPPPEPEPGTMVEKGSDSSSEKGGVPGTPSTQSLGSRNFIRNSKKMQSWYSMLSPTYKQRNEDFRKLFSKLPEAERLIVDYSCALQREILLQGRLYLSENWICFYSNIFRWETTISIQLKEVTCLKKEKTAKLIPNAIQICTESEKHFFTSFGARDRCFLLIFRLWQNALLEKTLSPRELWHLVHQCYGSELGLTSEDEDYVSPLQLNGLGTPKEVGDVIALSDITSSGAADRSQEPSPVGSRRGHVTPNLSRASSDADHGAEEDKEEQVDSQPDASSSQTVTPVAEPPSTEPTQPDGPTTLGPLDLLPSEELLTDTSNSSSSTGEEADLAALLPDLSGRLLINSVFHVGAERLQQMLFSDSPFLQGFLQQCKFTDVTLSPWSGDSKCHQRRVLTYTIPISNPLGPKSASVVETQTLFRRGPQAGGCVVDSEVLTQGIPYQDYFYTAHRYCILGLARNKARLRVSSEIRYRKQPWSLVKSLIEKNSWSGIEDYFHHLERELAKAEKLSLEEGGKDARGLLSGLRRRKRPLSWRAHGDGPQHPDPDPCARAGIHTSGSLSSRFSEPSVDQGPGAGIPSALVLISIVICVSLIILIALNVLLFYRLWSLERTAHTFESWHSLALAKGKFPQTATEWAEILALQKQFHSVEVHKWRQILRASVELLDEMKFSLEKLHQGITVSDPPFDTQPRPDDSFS

The tissue uptake of `C[C@@H](O)[C@@H](CO)NC(=O)[C@@H](CCCNC(=N)N)NC(=O)[C@@H]1CCCN1C(=O)[C@@H]1CSSC[C@H](NC(=O)[C@H](Cc2ccccc2)NC(=O)CN2CCN(CC(=O)O)CCN(CC(=O)O)CCN(CC(=O)O)CC2)C(=O)N[C@@H](Cc2ccc(O)cc2)C(=O)N[C@@H](Cc2ccccc2)C(=O)N[C@@H](CCC(N)=O)C(=O)N[C@@H](CC(N)=O)C(=O)N1` [gallium-68 labelled] is reported as 1.61 %ID/g (healthy Wistar rat, blood; intravenous, 8 MBq, 30 min, individual animals).
`C/C=C(/C)C(=O)O[C@H]1C(C)=C2[C@H]([C@@H]1OC(=O)CCCCCCC)[C@@](C)(OC(C)=O)C[C@H](OC(=O)CCC)[C@@]1(O)[C@H]2OC(=O)[C@@]1(C)O` — result for “normalized enrichment score”: 1.36 (HEK-293T; RNA-seq GSEA, measured: Hallmark fatty acid metabolism; 500 nM, 6 h; direction not given).
`COc1c(C)c2c(c(O)c1C/C=C(\C)CCC(=O)O)C(=O)OC2` has an IC50 of 851 nM (MT3; cell proliferation).
`CCCC[N+]1(C)[C@@H]2C[C@@H](OC(=O)[C@H](CO)c3ccccc3)C[C@H]1[C@@H]1O[C@@H]12` (stereo partly shown) gave an inhibition of -27% (THP-1; pyroptotic LDH release; 2 µM, 40 min, together with: LPS then nigericin).
`COc1c(CCC[P+](c2ccccc2)(c2ccccc2)c2ccccc2)cc2c(c1OC)OCO2.[I-]` gave a Log10GI50 of greater than -4 log M (NCI/ADR-RES; SRB).
With `C[C@H]1CN(c2n[nH]c3nc(N[C@H]4CC[C@H](NS(=O)(=O)CCC(F)(F)F)CC4)ncc23)CCO1` the remaining binding was 1.25 (Protein Aster-A (Homo sapiens, UniProt Q96CP6); Kinobeads competition, measured: GRAMD1A; 20 µM, unit not given; relative to: vehicle).
The viability of `Cc1cc(C(C)(C)c2ccc(O)c(C)c2)ccc1O` is reported as roughly 35% (HepG2 spheroids; MTS; 80 µM, 96 h; relative to: solvent control).
`CC[C@H](C)[C@H](NC(=O)[C@H](Cc1ccccc1)NC(=O)[C@H](CCC(=O)O)NC(=O)[C@H](CCCNC(=N)N)NC(=O)[C@H](C)NC(=O)[C@H](C)NC(=O)[C@H](CCC(N)=O)NC(=O)[C@H](CCC(=O)O)NC(=O)[C@H](CCC(=O)O)NC(=O)[C@H](CC(C)C)NC(=O)[C@H](Cc1ccc(O)cc1)NC(=O)[C@H](CO)NC(=O)[C@H](CO)NC(=O)[C@@H](NC(=O)[C@H](CC(=O)O)NC(=O)[C@H](CO)NC(=O)[C@@H](NC(=O)[C@H](Cc1ccccc1)NC(=O)[C@@H](NC(=O)CNC(=O)[C@H](CCC(=O)O)NC(=O)[C@H](C)NC(=O)CCc1c[nH]cn1)[C@@H](C)O)[C@@H](C)O)C(C)C)C(=O)N[C@@H](C)C(=O)N[C@@H](Cc1c[nH]c2ccccc12)C(=O)N[C@@H](CC(C)C)C(=O)N[C@H](C(=O)N[C@@H](CCCNC(=N)N)C(=O)NCC(=O)N[C@@H](CCCNC(=N)N)C(=O)N[C@@H](CCCCNC(=O)COCCOCCNC(=O)COCCOCCNC(=O)CC[C@H](NC(=O)CCCCCCCCCCCCCCCCC(=O)O)C(=O)O)C(=O)NCC(=O)NCC(=O)N[C@@H](CO)C(=O)N[C@@H](CCCCNc1c(NCCCCCN(O)C(=O)CCC(=O)NCCCCCN(O)C(=O)CCC(=O)NCCCCCN(O)C(C)=O)c(=O)c1=O)C(=O)O)C(C)C` [zirconium-89 labelled] gave a tissue uptake of 0.3 %ID/g (gamma counting; rat, stomach-duodenum; subcutaneous, 3 nmol/kg, 72 h).
For `Nc1ncnc2c1ncn2[C@@H]1O[C@@H]2COP(=O)(O)O[C@H]3[C@@H](O)[C@H](n4cnc5c(=O)[nH]cnc54)O[C@@H]3COP(=O)(O)O[C@H]2[C@H]1O`, the fold enrichment was 11.5 (HFF-1; RNA sequencing, measured: Reactome ISG antiviral mechanism; upregulated pathways; relative to: mock).
`Oc1ccc(C(c2ccc(O)cc2)(C(F)(F)F)C(F)(F)F)cc1`: “G1 phase cells” 73.5 ± 1.59% (HepG2 spheroids; Hoechst flow cytometry; 0.1 µM, 24 h).
With `COc1ccc2c(c1)[nH]c1c(C)nccc12` the methylation reduction was 0.07% (DU-145; bisulfite pyrosequencing, measured: RASSF1A promoter CpG site 29; concentration not given; relative to: vehicle).
`COc1cc(CCC[P+](c2ccccc2)(c2ccccc2)c2ccccc2)c(OC)c2c1OCO2.[I-]` has a TGI of -4.94 log M (SW-620; SRB).
The GI50 of `CC(C)N1CCC(NC2CCN(c3cccc(-c4cc5cc(F)ccc5[nH]4)c3)CC2)CC1` is reported as 1490 nM (COLO 205).
`COc1cc2c(Oc3ccc4[nH]c(C)cc4c3F)ccnc2cc1OCC1(N)CC1`: “grade 3 Proteinuria” 0% (paediatric recurrent refractory sarcoma; 10 mg).
Under “log2 fold change”, `CC[C@H](C)[C@@H]1NC(=O)[C@@H]2CCCN2C(=O)[C@H](CC(C)C)NC(=O)[C@H](CC(C)C)NC(=O)CNC(=O)[C@@H](NC(=O)[C@@H](NC(=O)[C@H](CC(=O)O)NC(=O)CNC(=O)[C@@H](NC(=O)[C@H](C)NC(=O)CNC(=O)[C@H](CCCCN)NC(=O)[C@H](CC(C)C)NC(=O)[C@H](CC(C)C)NC(=O)[C@H](CCCCN)NC(=O)CNC(=O)[C@@H](NC(=O)[C@@H](N)CC(C)C)C(C)C)C(C)C)C(C)C)CSSC[C@@H](C(=O)O)NC1=O` is recorded as -4 (RNA-seq, measured: Mefv mRNA; mouse traumatic brain injury, frontal cortex and hippocampus; dose not given; relative to: TBI plus compound vs TBI).
`CN1CCN(C2(CNC3CCN(c4cccc(-c5cc6cc(F)ccc6[nH]5)c4)CC3)CCC2)CC1` gave a CC50 of 5930 nM (ACHN).

Excerpt of the above:
`CC[C@H](C)[C@H](NC(=O)[C@H](Cc1ccccc1)NC(=O)[C@H](CCC(=O)O)NC(=O)[C@H](CCCNC(=N)N)NC(=O)[C@H](C)NC(=O)[C@H](C)NC(=O)[C@H](CCC(N)=O)NC(=O)[C@H](CCC(=O)O)NC(=O)[C@H](CCC(=O)O)NC(=O)[C@H](CC(C)C)NC(=O)[C@H](Cc1ccc(O)cc1)NC(=O)[C@H](CO)NC(=O)[C@H](CO)NC(=O)[C@@H](NC(=O)[C@H](CC(=O)O)NC(=O)[C@H](CO)NC(=O)[C@@H](NC(=O)[C@H](Cc1ccccc1)NC(=O)[C@@H](NC(=O)CNC(=O)[C@H](CCC(=O)O)NC(=O)[C@H](C)NC(=O)CCc1c[nH]cn1)[C@@H](C)O)[C@@H](C)O)C(C)C)C(=O)N[C@@H](C)C(=O)N[C@@H](Cc1c[nH]c2ccccc12)C(=O)N[C@@H](CC(C)C)C(=O)N[C@H](C(=O)N[C@@H](CCCNC(=N)N)C(=O)NCC(=O)N[C@@H](CCCNC(=N)N)C(=O)N[C@@H](CCCCNC(=O)COCCOCCNC(=O)COCCOCCNC(=O)CC[C@H](NC(=O)CCCCCCCCCCCCCCCCC(=O)O)C(=O)O)C(=O)NCC(=O)NCC(=O)N[C@@H](CO)C(=O)N[C@@H](CCCCNc1c(NCCCCCN(O)C(=O)CCC(=O)NCCCCCN(O)C(=O)CCC(=O)NCCCCCN(O)C(C)=O)c(=O)c1=O)C(=O)O)C(C)C` [zirconium-89 labelled] gave a tissue uptake of 0.3 %ID/g (gamma counting; rat, stomach-duodenum; subcutaneous, 3 nmol/kg, 72 h).
